Published values collected from several papers.
Protocols differ between the studies behind these lines. Numbers after ± are the reported error.

| SMILES | test | test system | setting | how to read | quantity | result |
| --- | --- | --- | --- | --- | --- | --- |
| CN(O)C(=O)CCC(=O)NCCCN(CCCCN(CCCNC(=O)CCC(=O)N(C)O)C(=O)CCC(=O)N(C)O)C(=O)CCC(=O)N(C)O.[89Zr] |  | mouse, kidney | 24 h |  | tracer uptake | 0.8 %ID/g |
| [2H]C1([2H])CC[C@@H](C[C@@H](C#N)NC(=O)[C@@H]2[C@@H]3[C@H](CN2C(=O)[C@@H](NC(=O)C(F)F)C(C)(C)C)C3(C)C)C(=O)N1 |  | mouse liver microsomes | scaled to liver |  | intrinsic clearance | 253 mL/min/kg |
| CN1CCC[C@]1(C)/C=C/S(=O)(=O)NC(=O)Nc1c2c(cc3c1CCC3O)CCC2 (stereo partly shown) |  | human, plasma | oral, 100 mg twice daily of parent drug, day 1, metabolite of dosed drug |  | AUC(0-tau) | 513 µg·h/mL |
| CCCC[C@H](OC(C)=O)c1ccccc1C(=O)O |  | beagle dogs, both sexes, whole blood | intravenous, 1.5 mg/kg single dose |  | MRT(0-inf) | 6 ± 4.9 h |
| CC(C(=O)O)n1nc(Cn2cc3cc(OCC[18F])c(Cl)cc3n2)c2ccccc2c1=O (racemic) |  | rat, bone | 1 h |  | tracer uptake | 0.12 %ID/g |
| CCCCN1C(=O)c2cccc3c(NCCCN4CCOCC4)ccc(c23)C1=O |  | ethyl acetate |  |  | absorption maximum | 429 nm |
| CC[C@H](C)[C@@H](C(=O)N[C@@H](CC(C)C)C(=O)N[C@@H](CO)C(=O)N[C@@H](CO)C(=O)N[C@H](C(=O)N[C@@H](CCC(=O)O)C(=O)N[C@H](C(=O)NCC(=O)N[C@@H](CO)C(=O)N[C@@H](CC(N)=O)C(=O)N[C@H](C(=O)N1C[C@H](O)C[C@H]1C(N)=O)[C@@H](C)O)C(C)C)[C@@H](C)O)N(C)C(=O)[C@H](C)NC(=O)CN(C)C(=O)[C@H](Cc1ccccc1)NC(=O)[C@H](CO)NC(=O)[C@H](CO)NC(=O)[C@H](CCCNC(=N)N)NC(=O)[C@H](CCC(N)=O)NC(=O)[C@H](CC(C)C)NC(=O)[C@H](Cc1ccccc1)NC(=O)[C@H](Cc1c[nH]cn1)NC(=O)[C@H](C)NC(=O)[C@H](CC(C)C)NC(=O)[C@H](CCCNC(=N)N)NC(=O)[C@H](CCC(=O)O)NC(=O)[C@@H](NC(=O)[C@H](C)NC(=O)[C@@H]1CSSC[C@H](NC(=O)[C@H](CCCNC(=N)N)NC(=O)CC[C@H](NC(=O)CCCCCCCCCCCCCCCCCCC(=O)O)C(=O)O)C(=O)NCC(=O)N[C@@H]([C@@H](C)O)C(=O)N[C@@H](C)C(=O)N[C@@H]([C@@H](C)O)C(=O)N1)[C@@H](C)O | RP-HPLC | aqueous solution | 7 days, pH 7.5, 40 °C |  | degradation | 10% |
| Cc1nc(N)nc2c1C(=O)N[C@@H](c1ccc(F)cc1-c1cccc(O[11CH3])n1)C2 | ex vivo biodistribution | healthy mice, plasma | 60 min post-injection, baseline, vehicle pre-treatment |  | SUV | 0.3 ± 0.1 |
| CC[C@H](C)[C@H](NC(=O)[C@H](CCCCN)NC(=O)[C@H](CCC(=O)O)NC(=O)[C@H](CCCCN)NC(=O)[C@H](CC(C)C)NC(=O)[C@H](C)NC(=O)[C@H](C)NC(=O)[C@@H](NC(=O)[C@H](CCCCN)NC(=O)[C@@H]1CSCc2ccccc2CSC[C@H](NC(=O)[C@@H](NC(=O)[C@H](CCCCN)NC(C)=O)[C@@H](C)CC)C(=O)N[C@@H](C)C(=O)N[C@@H](CC(C)C)C(=O)N[C@@H](CCCCN)C(=O)N1)[C@@H](C)CC)C(=O)N[C@@H](C)C(=O)N[C@@H](C)C(=O)N[C@@H](CC(C)C)C(=O)N[C@@H](CCCCN)C(=O)N[C@@H](CCC(=O)O)C(=O)NCC(=O)N[C@@H](Cc1c[nH]c2ccccc12)C(N)=O | circular dichroism thermal melting | PBS | pH 7.4, single peptide 50 µM total |  | melting temperature | 27 °C |
| Cc1c(Cc2cccc(OC(C)C(=O)O)c2)c2ccc(C(=O)NC(C)c3ccc(C(C)(C)C)cc3)cc2n1C (mixture of isomers) | metabolic stability | mouse, liver microsomes |  |  | half-life | 0.692 h |
| C/C(N)=N/C(=N\S(=O)(=O)c1ccc(C(F)(F)F)cc1)N1C[C@H](c2ccccc2)C(c2ccc(Cl)cc2)=N1 |  | male C57BL/6 mouse, liver | intravenous, 10 mg/kg |  | Cmax | 27700 ng/mL |
| CCCCN1C(=O)c2cccc3c(NCCCCCCCCN4CCOCC4)ccc(c23)C1=O |  | toluene |  |  | absorption maximum | 426 nm |
| [123I]c1ccc2nc(-c3ccc(-n4ccnn4)nc3)cn2c1 |  | male Wistar rat, blood | intravenous, 4 MBq, 6 h |  | tracer uptake | 0.103 %ID/g |
| O=C(O)/C=C\c1cc2ccoc2cc1O[C@@H]1O[C@H](CO)[C@@H](O)[C@H](O)[C@H]1O | post-procedure stability | rat plasma | 1000 ng/mL, 3 h, room temperature |  | accuracy | 112% |
| CCCCN1C(=O)c2cccc3c(NCCCCN4CCOCC4)ccc(c23)C1=O |  | dichloromethane |  |  | absorption maximum | 429 nm |
| CC(C)=CCC1=C([O-])C(=O)c2ccccc2C1=O.CC(C)=CCC1=C([O-])C(=O)c2ccccc2C1=O.Cc1cc2cccnc2c2ncccc12.O.[Cu+2] | cyclic voltammetry | dichloromethane | 0.1 mM, with: 0.1 M Bu4NPF6 | reference: Ag/AgCl in saturated KOH | cathodic peak potential | -1.33 V |
| C=C[C@]1(C)C[C@@H](OC(=O)CSc2ccc(NC(=O)c3ccco3)cc2)[C@]2(C)[C@H](C)CC[C@]3(CCC(=O)[C@H]32)[C@@H](C)[C@@H]1O |  | M. gallisepticum-infected chickens, plasma | intramuscular, 40 mg/kg single dose |  | central volume (V1/F) | 4.86 L/kg |
| O=C(Nc1cnccc1-c1ccc([18F])nc1)c1ccnc(NC(=O)C2CC2)c1 | ex vivo gamma counting | GSK-3β transgenic mice, early-stage, bladder | intravenous, 120 min, mean, P-gp inhibitor pretreatment, with: tariquidar 15 mg/kg iv |  | SUV | 2.75 |
| CCC1CNC(CC)CN(C(C(=O)[O-])c2ccc(C(=O)[O-])cc2)C(CC)CN(CC(=O)[O-])C(CC)CN1.[Mn+2] (stereo not shown) | ICP-MS | BALB/c mouse, spleen | intravenous, 0.05 mmol/kg, 5 min, without anaesthesia |  | Mn content | 1.16 ± 0.23 µg/g |
| CC(C)(O)c1ncc([S@](N)(=O)=NC(=O)Nc2c3c(cc4c2CCC4)CCC3)s1 | measured: nervous system disorders | healthy human subjects | oral, 100 mg, total |  | share of subjects with TEAEs | 17% |
| Cc1nc(N)nc2c1C(=O)N[C@@H](c1ccc(F)cc1-c1cccc(OCC[18F])n1)C2 | ex vivo biodistribution | C57BL/6 mice, plasma | intravenous, 1 MBq, 30 min |  | SUV | 0.95 ± 0.1 |
| C=C(NC(=O)c1csc(-c2nc3c(cc2O)-c2nc(cs2)C(=O)NC(C(C)O)C(=O)NC(=C(C)OC)c2nc(cs2)C(=O)NC2c4nc(cs4)C(=O)NC(COC(=O)c4c5c6c(cccc6n4O)COC(=O)C(OC4CC(C)(O)C(N(C)C)C(C)O4)C2OC5)c2nc-3cs2)n1)C(N)=O (stereo not shown) |  | ICR mice, Streptococcus pneumoniae ATCC 49169 infected, immunocompromised, blood | intravenous, 8 mg/kg/day twice daily |  | MRT(0-t) | 4.76 h |
| CC(CCC(=O)NCC(=O)O)C1CCC2C3CCC4CC(OC5OC(C(=O)O)C(O)C(O)C5O)CCC4(C)C3CC(O)C12C (stereo not shown) |  | human, plasma | control |  | mean daily plasma concentration | 0.151 ± 0.024 µM |
| Cc1cc(Cl)cc(S(C)(=O)=NC#N)c1NC(=O)c1cc(Br)nn1-c1ncccc1Cl (stereo not shown) | potentiometric |  |  |  | pKa | 8.15 |
| Cc1ccc(CN2C(=O)/C(=N\c3ccc(Cl)cc3Br)c3ccccc32)cc1 |  | mouse, blood | 100 mg/kg |  | MPV | 5.34 ± 0.16 fL |
| O=C(Nc1cnccc1-c1ccc([18F])cc1)c1ccnc(NC(=O)C2CC2)c1 | ex vivo gamma counting | GSK-3β transgenic mice, early-stage, adipose tissue | intravenous, 120 min, with: tariquidar 15 mg/kg iv |  | mean SUV | 0.2 |
| CCCCN1C(=O)c2cccc3c(NCCCCCN4CCOCC4)ccc(c23)C1=O |  | ethylene glycol |  |  | absorption maximum | 448 nm |
| COc1cccc(OC)c1-c1cc(C(=O)NC2(C(=O)O)C3CC4CC(C3)CC2C4)nn1-c1ccc(C(=O)N(C)CCOCCN(C)C(=O)[C@H](CCCCNC(=O)[C@H](CC(C)C)NC(=O)C2OC2C(=O)O)NC(=O)CN2CCN(CC(=O)[O-])CCN(CC(=O)[O-])CCN(CC(=O)[O-])CC2)cc1C(C)C.[177Lu+3] (mixture of isomers) |  | mouse, HT-29 xenograft | 4 h post injection, biodistribution | reference: tumour over liver uptake | tumour-to-liver ratio | 3.53 |
